{"data": "Measured values pooled from the literature", "note": "A part holds a random share of what one study measured. “And” joins repeats or separate records; there may be more than shown.", "chain of UniProt P10635 (whole entry, looked up)": "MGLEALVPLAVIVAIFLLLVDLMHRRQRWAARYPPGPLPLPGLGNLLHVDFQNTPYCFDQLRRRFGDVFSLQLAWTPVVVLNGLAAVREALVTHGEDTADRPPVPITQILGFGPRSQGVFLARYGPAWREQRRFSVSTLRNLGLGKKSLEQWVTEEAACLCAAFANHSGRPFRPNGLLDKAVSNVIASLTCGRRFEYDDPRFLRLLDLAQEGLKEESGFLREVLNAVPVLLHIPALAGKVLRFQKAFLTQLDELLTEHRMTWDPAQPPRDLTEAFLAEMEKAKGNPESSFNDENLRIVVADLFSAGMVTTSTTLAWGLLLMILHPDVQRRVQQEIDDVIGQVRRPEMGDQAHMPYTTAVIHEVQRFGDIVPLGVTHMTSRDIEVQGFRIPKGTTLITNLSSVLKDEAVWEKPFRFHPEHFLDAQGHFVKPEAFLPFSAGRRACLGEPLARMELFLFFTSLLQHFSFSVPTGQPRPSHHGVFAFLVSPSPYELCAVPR", "chain of UniProt P10632 (whole entry, looked up)": "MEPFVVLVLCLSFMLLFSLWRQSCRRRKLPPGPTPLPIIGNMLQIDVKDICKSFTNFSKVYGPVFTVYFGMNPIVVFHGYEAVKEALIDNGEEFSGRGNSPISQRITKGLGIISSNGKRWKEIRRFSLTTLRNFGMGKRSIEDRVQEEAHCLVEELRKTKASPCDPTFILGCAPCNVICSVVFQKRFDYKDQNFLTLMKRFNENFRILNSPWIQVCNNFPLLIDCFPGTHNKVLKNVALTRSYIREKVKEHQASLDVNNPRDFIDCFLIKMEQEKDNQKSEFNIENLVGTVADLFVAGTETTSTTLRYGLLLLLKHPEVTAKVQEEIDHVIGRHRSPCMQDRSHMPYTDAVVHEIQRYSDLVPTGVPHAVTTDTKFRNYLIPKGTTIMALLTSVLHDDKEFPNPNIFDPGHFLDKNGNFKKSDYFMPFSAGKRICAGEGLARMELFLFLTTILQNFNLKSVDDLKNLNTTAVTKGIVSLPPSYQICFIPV"}
{"data": "Series 1", "SMILES": "CC(C)(C)n1nc(-c2ccc(Cl)cc2)c2c(N)ncnc21", "cell line": "L929", "technique": "CCK-8"}
{"test": "necroptosis protection", "setting": "0.021 µM, added: TNF-α-induced", "viability": "15.1%"}
{"test": "necroptosis protection", "setting": "0.185 µM, added: TNF-α-induced", "viability": "18.6%"}
{"test": "necroptosis protection", "setting": "0.062 µM, added: TNF-α-induced", "viability": "16.5%"}
{"test": "necroptosis protection", "setting": "15 µM, added: TNF-α-induced", "viability": "63.1%"}
{"setting": "12.5 µM, added: zVAD", "viability": "64.6% and 78.8% and 62.9% and 81.3% and 79.9%"}
{"test": "necroptosis protection", "setting": "0.556 µM, added: TNF-α-induced", "viability": "29.1%"}
{"test": "necroptosis protection", "setting": "0.625 µM, added: TNF-α-induced", "viability": "45.1%"}
{"test": "necroptosis protection", "setting": "2.5 µM, added: TNF-α-induced", "viability": "61%"}
{"setting": "12.5 µM", "viability": "64.5% and 67.9% and 56.9% and 58.5% and 68.5%"}
{"test": "necroptosis protection", "setting": "0.00229 µM, added: TNF-α-induced", "viability": "13.2%"}
{"data": "Series 2", "SMILES": "CCCCC[C@@H](O)CC(=O)N[C@H]1COC(=O)[C@H](CO)NC(=O)[C@H](Cc2ccccc2)NC(=O)[C@@H](Cc2c[nH]c3ccccc23)NC(=O)[C@@H](C(C)O)NC(=O)[C@H](CC(N)=O)NC(=O)[C@@H](C(C)C)NC(=O)[C@H](CC(C)C)NC(=O)[C@@H](Cc2ccc(O)cc2)N(C)C(=O)CNC(=O)[C@H](CO)NC(=O)[C@@H](CC(N)=O)NC1=O (stereo partly shown)", "organism": "Staphylococcus aureus", "strain": "USA300", "tested at": "2 x MIC"}
{"setting": "120 min", "viable cells": "1100 CFU/mL and 1200 CFU/mL and 1300 CFU/mL"}
{"setting": "15 min", "viable cells": "5500 CFU/mL and 5300 CFU/mL and 5900 CFU/mL"}
{"setting": "60 min", "viable cells": "1900 CFU/mL and 1500 CFU/mL and 1700 CFU/mL"}
{"setting": "0 min", "viable cells": "4.8e+08 CFU/mL and 4.1e+08 CFU/mL and 4.3e+08 CFU/mL"}
{"setting": "300 min", "viable cells": "600 CFU/mL and 700 CFU/mL and 400 CFU/mL"}
{"data": "Series 3", "SMILES": "C=CCN1C(=O)C(O)(C(=O)O)Oc2cc(F)ccc21 (stereo not shown)", "organism": "Arabidopsis thaliana", "strain": "Col-0", "notes": "seed germination"}
{"setting": "6.25 µg/mL", "root length [cm]": 1.08}
{"setting": "3.125 µg/mL", "root length [cm]": 1.12}
{"setting": "25 µg/mL", "root length [cm]": 1.04}
{"setting": "100 µg/mL", "root length [cm]": 0.623}
{"setting": "12.5 µg/mL", "root length [cm]": 1.12}
{"setting": "50 µg/mL", "root length [cm]": 0.934}
{"data": "Series 4", "SMILES": "Cn1cc(-c2cccc(CN3CCC4(CC3)COc3c4ccc4c3CN([C@H]3CCC(=O)NC3=O)C4=O)c2)cn1", "read-out": "enzyme activity", "matrix": "human liver microsomes", "baseline": "negative control", "CYP2C19": "Cytochrome P450 2C19 (CYP2C19, Homo sapiens, UniProt P33261)", "CYP3A4": "Cytochrome P450 3A4 (CYP3A4, Homo sapiens, UniProt P08684)", "CYP1A2": "Cytochrome P450 1A2 (CYP1A2, Homo sapiens, UniProt P05177)", "chain of UniProt P08684 (whole entry, looked up)": "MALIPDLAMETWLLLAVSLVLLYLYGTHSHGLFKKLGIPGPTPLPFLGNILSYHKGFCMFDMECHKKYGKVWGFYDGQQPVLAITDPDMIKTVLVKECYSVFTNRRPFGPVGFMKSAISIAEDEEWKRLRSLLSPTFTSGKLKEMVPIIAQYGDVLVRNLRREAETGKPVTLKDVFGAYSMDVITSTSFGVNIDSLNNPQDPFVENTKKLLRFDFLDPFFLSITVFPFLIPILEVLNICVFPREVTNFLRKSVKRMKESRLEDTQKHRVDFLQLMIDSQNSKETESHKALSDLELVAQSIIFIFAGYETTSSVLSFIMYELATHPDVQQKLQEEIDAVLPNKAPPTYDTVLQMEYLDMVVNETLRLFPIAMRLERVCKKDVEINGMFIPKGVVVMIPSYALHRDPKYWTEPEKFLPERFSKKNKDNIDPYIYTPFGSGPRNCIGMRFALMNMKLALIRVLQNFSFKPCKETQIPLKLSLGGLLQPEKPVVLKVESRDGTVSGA", "chain of UniProt P33261 (whole entry, looked up)": "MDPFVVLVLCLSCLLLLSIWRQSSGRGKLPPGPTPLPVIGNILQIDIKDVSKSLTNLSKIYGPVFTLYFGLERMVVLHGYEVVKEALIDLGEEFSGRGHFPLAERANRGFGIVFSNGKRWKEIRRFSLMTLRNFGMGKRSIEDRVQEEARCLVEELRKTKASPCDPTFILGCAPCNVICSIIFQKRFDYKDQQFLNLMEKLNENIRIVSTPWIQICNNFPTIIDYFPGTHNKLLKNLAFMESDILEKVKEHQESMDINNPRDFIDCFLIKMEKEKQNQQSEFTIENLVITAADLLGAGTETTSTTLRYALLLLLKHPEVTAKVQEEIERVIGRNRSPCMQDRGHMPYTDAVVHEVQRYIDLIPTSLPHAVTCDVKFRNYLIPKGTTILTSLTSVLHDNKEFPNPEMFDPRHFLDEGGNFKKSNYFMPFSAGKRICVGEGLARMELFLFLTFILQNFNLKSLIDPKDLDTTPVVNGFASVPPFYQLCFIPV", "chain of UniProt P05177 (whole entry, looked up)": "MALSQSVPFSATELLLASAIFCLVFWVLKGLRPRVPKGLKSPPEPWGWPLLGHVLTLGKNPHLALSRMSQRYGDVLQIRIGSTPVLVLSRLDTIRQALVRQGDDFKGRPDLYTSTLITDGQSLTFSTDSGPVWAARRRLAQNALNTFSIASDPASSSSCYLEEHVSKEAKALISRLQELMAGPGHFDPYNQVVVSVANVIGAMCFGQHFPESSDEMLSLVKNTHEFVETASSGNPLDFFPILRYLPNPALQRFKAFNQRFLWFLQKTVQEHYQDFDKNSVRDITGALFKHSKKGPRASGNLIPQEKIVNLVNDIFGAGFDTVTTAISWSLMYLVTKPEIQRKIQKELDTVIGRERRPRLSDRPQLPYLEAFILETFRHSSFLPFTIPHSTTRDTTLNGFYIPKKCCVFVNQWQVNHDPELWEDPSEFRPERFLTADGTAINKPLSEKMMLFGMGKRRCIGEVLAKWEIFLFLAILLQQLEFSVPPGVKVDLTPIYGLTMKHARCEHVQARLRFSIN"}
{"target": "CYP2C19", "setting": "0.0137 µM", "remaining activity [%]": 105}
{"target": "CYP2C19", "setting": "0.12 µM", "remaining activity [%]": 102}
{"target": "CYP3A4", "setting": "0.04 µM, added: midazolam substrate", "remaining activity [%]": 102}
{"target": "CYP3A4", "setting": "0.0137 µM, added: midazolam substrate", "remaining activity [%]": 99}
{"target": "CYP3A4", "setting": "0.37 µM, added: testosterone substrate", "remaining activity [%]": 91.3}
{"target": "CYP1A2", "setting": "0.0137 µM", "remaining activity [%]": 91.6}
{"target": "Cytochrome P450 2D6 (CYP2D6, Homo sapiens, UniProt P10635)", "setting": "3.33 µM", "remaining activity [%]": 98.2}
{"target": "CYP1A2", "setting": "1.11 µM", "remaining activity [%]": 85.8}
{"target": "CYP3A4", "setting": "1.11 µM, added: midazolam substrate", "remaining activity [%]": 101}
{"target": "Cytochrome P450 2C8 (CYP2C8, Homo sapiens, UniProt P10632)", "setting": "3.33 µM", "remaining activity [%]": 115}
{"note": "For quick reference, copied from above (series 4):"}
{"target": "CYP3A4", "setting": "1.11 µM, added: midazolam substrate", "remaining activity [%]": 101}
{"target": "CYP1A2", "setting": "1.11 µM", "remaining activity [%]": 85.8}
{"target": "CYP3A4", "setting": "0.0137 µM, added: midazolam substrate", "remaining activity [%]": 99}
{"target": "CYP2C19", "setting": "0.0137 µM", "remaining activity [%]": 105}
